Experimental data from different studies.
Numbered parts are unrelated; each lists some results of a single study.

Series 1
Target: Replicase polyprotein 1ab, polymerase (rep, Severe acute respiratory syndrome coronavirus 2, UniProt P0DTD1)
Read-out: enzyme activity
Mode: inhibitor
Tested at: 20 µM
Structure (SMILES) | inhibition [%]
OCCCNc1cc(-c2ccnc(Nc3cccc(Cl)c3)n2)ccn1 | 3.25
CCOc1cc(N)c(Cl)cc1C(=O)NCC1CN(Cc2ccc(F)cc2)CCO1 (stereo not drawn) | -3.6
CCCN(CC1CC1)c1nc(C)nc(Nc2c(Cl)cc(Cl)cc2Cl)c1Cl | -0.06
C[C@@H](c1ncncc1F)[C@](O)(Cn1cncn1)c1ccc(F)cc1F | -4.97
CNC(=O)c1ccccc1Nc1nc(Nc2ccc3c(c2OC)CCC[C@H](N2CCN(CCO)CC2)C3)ncc1Cl | 5.62
C=C1CC[C@@H]2[C@](C)(CO)[C@H](O)CC[C@@]2(C)[C@@H]1C/C=C1/C(=O)OC[C@H]1O | -4.06
CCCCCCCCCCOc1cc2c(O)c(C(=O)OCC)cnc2cc1OCC | -7.52
Cc1cccc(NC(=O)N[C@@H]2N=C(c3ccccc3)c3ccccc3N(C)C2=O)c1 | 0.89
COc1ccc2nc3c(c(N)c2c1)CCCC3 | -0.58
CCN1C[C@]2(COC(=O)c3ccccc3N3C(=O)C[C@H](C)C3=O)CC[C@H](OC)[C@@]34[C@@H]5C[C@H]6[C@H](OC)[C@@H]5[C@](O)(C[C@@H]6OC)[C@@](O)([C@@H](OC)[C@H]23)[C@@H]14 | -3.24
COc1cc2ncnc(Nc3ccc(F)c(Cl)c3)c2cc1NC(=O)/C=C/CN1CCCCC1 | -1.41
O=C1C(O)=C([C@H]2CC[C@H](c3ccc(Cl)cc3)CC2)C(=O)c2ccccc21 | -12.8
c1ccc(N2CCN(CCCOc3ccc4c(c3)OCO4)CC2)cc1 | 5.11
OCc1cncc(F)c1 | -0.96
Nc1c2c(nc3c1CCC3)CCCC2 | 1.04
Cn1ncc(Cl)c1-c1cc(C(=O)N[C@H](CN)Cc2ccc(F)c(F)c2)oc1Cl | 0.04
COCc1c[n+]([O-])c(C)cn1 | 0.76
COC(=O)C1=C(C)NC(C)=C(C(=O)OCCN2CCN(C(c3ccccc3)c3ccccc3)CC2)C1c1cccc([N+](=O)[O-])c1 (stereo not drawn) | 22.5
C[C@@H]1O[C@@H](O[C@@H]2[C@@H](O)[C@H](OCCc3ccc(O)c(O)c3)O[C@H](CO)[C@H]2OC(=O)/C=C/c2ccc(O)c(O)c2)[C@H](O)[C@H](O)[C@H]1O | 28.4
O=C(O)c1cc(=O)c2ccccc2[nH]1 | -7.54
O=c1[nH]c(=O)n(Cl)c(=O)n1Cl | 5.58
C[N+](C)(C)CC#CCN1CCCC1=O | 0.17
N[C@H](C(=O)O)c1ccc(O)cc1 | 6.54
CC1=NC[C@H](O)[C@@H](C(=O)O)N1 | 0.74
O=C(O)P(=O)(O)O | 18.1

Series 2
Target: RING finger protein unkempt homolog, zinc fingers 1-6, GST-SBP tag (UNK, Homo sapiens, UniProt Q9C0B0, residues 30-357)
Method: RNA Bind-n-Seq
Molecule type: RNA
Matrix: in vitro
Tested at: not given
Setting: RNA with constant flanks, human-mouse chimeric sites, ends assumed
Baseline: input RNA pool
Direction: higher = stronger binding
Constant ends, left off below: GGGAGUUCUACAGUCCGACGAUC … CAACAGAGGAUUGAGCAUCA
Residues (chain): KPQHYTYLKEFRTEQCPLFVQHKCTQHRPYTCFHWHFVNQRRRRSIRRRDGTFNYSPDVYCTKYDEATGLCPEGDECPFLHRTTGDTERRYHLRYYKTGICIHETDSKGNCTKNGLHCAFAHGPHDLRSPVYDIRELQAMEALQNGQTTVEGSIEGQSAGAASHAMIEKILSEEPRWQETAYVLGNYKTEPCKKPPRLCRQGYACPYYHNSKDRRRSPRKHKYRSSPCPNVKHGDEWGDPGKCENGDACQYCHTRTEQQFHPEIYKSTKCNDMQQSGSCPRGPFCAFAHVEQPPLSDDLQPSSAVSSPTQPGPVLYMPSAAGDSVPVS
Sequence | bound/input enrichment
AGUGUGCAGGAAUUCAUGACCUUUACAAGUCAACUGAUUGUGGAGCGCUCGGGGAAAGGCACUAGAGCUUCUGUCAAAGAACAAGAGUAUCUUUGCCAUGUCUACGUCCGGAGCGACAGU | 0.112 ratio
CUGAGGAUACCACUGAAAGAGACAUUAAAGAAUCAUUUGAGGGCUCUGUUCGUGCAAAGGAUAGUUAUGAUCGGGAAACUGGUUCUUCCAAAGGGUUUGGUUUUGUAGACUUUAAUAGUG | 0.991 ratio
CCAAUUGUGGAGCAGUACUUGAAGACAAAGAAAAAUUCUAAUAAUUUAAUCAUCAAGUACAUUAGCUGCCGCCUGCUGACACUCAUCAUUAUACUGUUGGCAUGUAUCUACCUGGGCUAU | 0.323 ratio
UAUAUCACCAAUGUCCUACAAAAUCCUGAUUUGGCUCUGAGAAUGGCUGUGCGGAACAACUUAGCCGGUGCUGAAGAACUCUUUGCCCGGAAAUUUAAUGCUCUCUUCGCCCAGGGAAAC | 0.611 ratio
GUUCGGCUCUGGGAUCAUGCUACUAUGACAGAAGUGAAAUCUCUAAAUUUUAAUAUGUCUGUUAGCAGCAUGGAGUAUAUUCCUGAAGGAGAGAUUUUGGUUAUUACUUAUGGACGAUCU | 0.284 ratio
GUUGCCAGCUUCCGGUUCCGUUGGGCUCGGUUCUCUCCUGAGCUACGUGUCUCUACGCUCUCAAUCCCGGUUGGGUAAAACAUGGAUCAGGUAAUGCUGCAGUUUGUGCCCAGCCGGCAG | 0.0788 ratio
GUGACAGGUGUUAAGAUUUCCCCUCAGCAAAGAAGUGCAGUAGUCACCAUAAUUCCAUCUGUGGUGAGUGCCAGUCAGAUUGUGGAGCUGGUUCCAGACCUCAGUUUAGACAUGGGAACU | 0.212 ratio
ACAGUUAUACACUGUUGUUUCAUUUUCAUAUAUUCUUGUAGUGUCUGCUUGCCUGUGACUUCUGGUAAAAUAAAAUAAGCCUUUGAAAAUAUUUUAGCAUGGUAUUUAACAUUUUCUAAA | 1.9 ratio

Series 3
Target: PABPC1L2, full length, GST fusion (mouse, UniProt A0ABA7IW68)
Method: RNAcompete
Molecule type: RNA
Matrix: in vitro
Tested at: 20 nM
Setting: 7-mer, probes averaged, single round
Baseline: mean of 7-mers
Direction: higher = stronger binding
Residues (chain): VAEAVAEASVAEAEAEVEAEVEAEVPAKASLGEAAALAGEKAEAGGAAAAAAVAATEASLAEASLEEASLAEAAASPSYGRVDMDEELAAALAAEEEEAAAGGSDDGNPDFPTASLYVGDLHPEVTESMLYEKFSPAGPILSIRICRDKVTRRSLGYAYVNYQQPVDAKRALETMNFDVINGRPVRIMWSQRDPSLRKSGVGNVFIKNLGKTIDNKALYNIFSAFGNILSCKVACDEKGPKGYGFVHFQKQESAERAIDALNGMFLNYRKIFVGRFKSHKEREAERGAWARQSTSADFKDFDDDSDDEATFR
Sequence | 7-mer Z-score
CCUUGCC | -0.42
CCAGAUA | -0.0156
CCGCUGU | -0.289
GUGCAAU | 0.037
GGCAUGC | -0.0609
CCAGGAA | 0.211
GUCGUUU | -0.619
UCGACAC | -0.0935

Series 4
Cell line: HEK-293T
Read-out: pseudovirus infection
Method: FDA-approved drug library screen
Organism: VSV pseudotyped with SARS-CoV-2 spike
Tested at: 10 µM
Time: 16 h
Baseline: vehicle-treated
SMILES | GFP-positive cells [%]
CCCCCOC(=O)Nc1nc(=O)n([C@@H]2O[C@H](C)[C@@H](O)[C@H]2O)cc1F | 85.3
CC(C)[C@H](N)C(=O)OCCOCn1cnc2c(=O)[nH]c(N)nc21 | 94.2
CN(C)CC[C@@H](c1ccc(Cl)cc1)c1ccccn1 | 66.3

Series 5
Target: Replicase polyprotein 1ab, main protease (rep, Severe acute respiratory syndrome coronavirus 2, UniProt P0DTD1)
Read-out: enzyme activity
Mode: inhibitor
Tested at: 20 µM
Setting: hit confirmation
Compound | inhibition
Cc1nc(=O)c2c([nH]1)CCSC2 | 35.8%
O=C1C2CC=CCC2C(=O)N1SC(Cl)(Cl)Cl (stereo not drawn) | 100%
CCCCOc1ccc(CC/C=C2\SC(=O)N(CCN)C2=O)cc1 | 3.8%

Single results of other studies
Method: RNA Bind-n-Seq
Molecule type: RNA
Matrix: in vitro
Setting: 4-mer, random 30-nt RNA, single round
Baseline: input library
Direction: higher = stronger binding
EIF4A1: Eukaryotic initiation factor 4A-I (EIF4A1, Homo sapiens, UniProt P60842, residues 1-406, full length assumed)
Chain of UniProt P60842 (whole entry, looked up): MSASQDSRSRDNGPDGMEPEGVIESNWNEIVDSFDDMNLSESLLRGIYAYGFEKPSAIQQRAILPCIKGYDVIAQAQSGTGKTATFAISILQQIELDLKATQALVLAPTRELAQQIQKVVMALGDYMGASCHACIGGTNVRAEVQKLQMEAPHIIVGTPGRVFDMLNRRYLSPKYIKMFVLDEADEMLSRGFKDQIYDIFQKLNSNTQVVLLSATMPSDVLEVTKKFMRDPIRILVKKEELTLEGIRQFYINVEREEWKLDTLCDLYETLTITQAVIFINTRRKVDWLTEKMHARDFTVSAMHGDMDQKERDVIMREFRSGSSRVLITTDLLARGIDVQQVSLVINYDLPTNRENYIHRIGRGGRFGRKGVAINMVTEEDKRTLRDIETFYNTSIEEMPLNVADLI
DDX3X helicase core: ATP-dependent RNA helicase DDX3X, helicase core (DDX3X, Homo sapiens, UniProt O00571, residues 132-607)
Chain of UniProt O00571 (132-607, looked up): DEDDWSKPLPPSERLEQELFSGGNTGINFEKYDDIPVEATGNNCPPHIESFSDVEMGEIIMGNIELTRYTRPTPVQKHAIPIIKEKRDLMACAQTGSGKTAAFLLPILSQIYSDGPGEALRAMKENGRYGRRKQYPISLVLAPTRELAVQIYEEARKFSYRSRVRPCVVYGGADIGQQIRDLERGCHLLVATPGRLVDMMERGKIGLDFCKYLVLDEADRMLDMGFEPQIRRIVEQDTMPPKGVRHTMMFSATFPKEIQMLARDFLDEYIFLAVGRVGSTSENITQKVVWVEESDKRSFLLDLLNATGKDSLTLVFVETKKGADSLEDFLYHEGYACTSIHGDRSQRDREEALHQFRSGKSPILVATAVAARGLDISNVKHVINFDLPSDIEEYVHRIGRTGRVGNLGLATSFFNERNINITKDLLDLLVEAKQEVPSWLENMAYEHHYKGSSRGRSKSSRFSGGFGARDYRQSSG
Sequence | target | tested at | with | 4-mer enrichment [fold]
GACA | EIF4A1 | not given | RocA, ADP, phosphate | 0.834
CGGA | DDX3X helicase core | 90 pmol | 3 µM DMDA-PatA, 2 mM ADP, 2 mM phosphate | 0.937
UAUC | EIF4A1 | not given | RocA, ADP, phosphate | 0.645
AUAU | DDX3X helicase core | not given | RocA, ADP, phosphate | 0.903

For quick reference, copied from above (series 3):
Sequence | 7-mer Z-score
CCUUGCC | -0.42
CCAGAUA | -0.0156
CCGCUGU | -0.289
